Published values of several laboratories.
Protocols differ between the studies behind these lines. Numbers after ± are the reported error.

Compound | system | conditions | Tmax
O=C(CCc1ccc(CNC(C(=O)OC2CCCC2)C2CCCCC2)cn1)NO (stereo not shown) | healthy volunteers | oral, single dose | ~0.5 h
COc1cc(C)c(Cc2ccc(O)cc2)cc1[C@@H]1S[C@H](CO)[C@@H](O)[C@H](O)[C@H]1O | Japanese T2DM patients, plasma | 5 mg luseogliflozin, day 7, once daily | 2 ± 1.12 h
Cc1ccccc1-c1cc(N2CC[N+](C)([O-])CC2)ncc1N(C)C(=O)C(C)(C)c1cc(C(F)(F)F)cc(C(F)(F)F)c1 | cancer patients, plasma | oral, dose not given, netupitant-palonosetron single dose, range of means | 3.88 to 4.45 h
CC(C)(Sc1cc[n+]([O-])cc1-c1ccc(C#N)c2ccccc12)C(=O)OC1OC(C(=O)O)C(O)C(O)C1O (stereo not shown) | plasma | oral, 15 mg, moderate renal impairment, fasted | 3 h
CN1CCN(c2cc(-c3ccccc3CO)c(N(C)C(=O)C(C)(C)c3cc(C(F)(F)F)cc(C(F)(F)F)c3)cn2)CC1 | healthy volunteers, plasma | oral, dose not given, netupitant-palonosetron fixed-dose combination | 11 h
Cc1ccc([C@@H]2O[C@H](CO)[C@@H](O)[C@H](O)[C@H]2O)cc1Cc1ccc(-c2ccc(F)cc2)s1 | albino rabbit, plasma | oral or sublingual | 2.91 ± 0.35 h
NC[C@@H](C(=O)Nc1ccc(-c2cn[nH]c2)cc1)c1ccccc1 | rabbit New Zealand White, plasma | topical ocular, one drop 0.1% | 2 h
Cc1ccccc1-c1cc(N2CCNCC2)ncc1N(C)C(=O)C(C)(C)c1cc(C(F)(F)F)cc(C(F)(F)F)c1 | healthy volunteers, plasma | oral, dose not given | 9.85 to 15.3 h
CC(C)(Sc1ccncc1-c1ccc(C#N)c2ccccc12)C(=O)OC1OC(C(=O)O)C(O)C(O)C1O (stereo not shown) | plasma | oral, 15 mg, mild renal impairment, fasted | 3 h
CC(=O)N[C@H](CC(=O)O)C(=O)N[C@H](Cc1c[nH]c2ccccc12)C(=O)N[C@H](Cc1ccccc1)C(=O)N[C@H](CCCCN)C(=O)N[C@H](C)C(=O)N[C@H](Cc1ccccc1)C(=O)N[C@H](Cc1ccc(O)cc1)C(=O)N[C@H](CC(=O)O)C(=O)N[C@H](CCCCN)C(=O)N[C@@H](C(=O)N[C@H](C)C(=O)N[C@H](CCC(=O)O)C(=O)N[C@H](CCCCN)C(=O)N[C@H](Cc1ccccc1)C(=O)N[C@H](CCCCN)C(=O)N[C@H](CCC(=O)O)C(=O)N[C@H](C)C(=O)N[C@H](Cc1ccccc1)C(N)=O)C(C)C | statin-treated high-risk CHD patients, plasma | oral, 100 mg daily, day 13, median, detected subjects | 2 h

Some of these lines once more:
Compound | system | conditions | Tmax
CC(C)(Sc1ccncc1-c1ccc(C#N)c2ccccc12)C(=O)OC1OC(C(=O)O)C(O)C(O)C1O (stereo not shown) | plasma | oral, 15 mg, mild renal impairment, fasted | 3 h
CC(=O)N[C@H](CC(=O)O)C(=O)N[C@H](Cc1c[nH]c2ccccc12)C(=O)N[C@H](Cc1ccccc1)C(=O)N[C@H](CCCCN)C(=O)N[C@H](C)C(=O)N[C@H](Cc1ccccc1)C(=O)N[C@H](Cc1ccc(O)cc1)C(=O)N[C@H](CC(=O)O)C(=O)N[C@H](CCCCN)C(=O)N[C@@H](C(=O)N[C@H](C)C(=O)N[C@H](CCC(=O)O)C(=O)N[C@H](CCCCN)C(=O)N[C@H](Cc1ccccc1)C(=O)N[C@H](CCCCN)C(=O)N[C@H](CCC(=O)O)C(=O)N[C@H](C)C(=O)N[C@H](Cc1ccccc1)C(N)=O)C(C)C | statin-treated high-risk CHD patients, plasma | oral, 100 mg daily, day 13, median, detected subjects | 2 h
